{"data": "Experimental data gathered from unrelated publications", "note": "A part holds a random share of what one study measured.", "chain of UniProt P42685 (whole entry, looked up)": "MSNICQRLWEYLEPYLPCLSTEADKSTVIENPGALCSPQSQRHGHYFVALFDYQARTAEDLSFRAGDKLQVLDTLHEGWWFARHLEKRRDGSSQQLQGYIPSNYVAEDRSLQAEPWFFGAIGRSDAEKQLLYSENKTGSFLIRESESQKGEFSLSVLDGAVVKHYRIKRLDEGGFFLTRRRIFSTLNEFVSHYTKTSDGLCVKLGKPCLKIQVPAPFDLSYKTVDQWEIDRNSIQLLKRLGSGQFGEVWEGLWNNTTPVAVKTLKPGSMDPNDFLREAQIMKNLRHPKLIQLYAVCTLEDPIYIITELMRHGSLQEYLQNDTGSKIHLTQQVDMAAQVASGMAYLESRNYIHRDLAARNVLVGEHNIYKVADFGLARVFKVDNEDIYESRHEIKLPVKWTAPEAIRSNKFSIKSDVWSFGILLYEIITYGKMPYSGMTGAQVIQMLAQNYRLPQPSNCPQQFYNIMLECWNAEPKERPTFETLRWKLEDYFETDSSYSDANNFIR", "chain of UniProt Q12866 (whole entry, looked up)": "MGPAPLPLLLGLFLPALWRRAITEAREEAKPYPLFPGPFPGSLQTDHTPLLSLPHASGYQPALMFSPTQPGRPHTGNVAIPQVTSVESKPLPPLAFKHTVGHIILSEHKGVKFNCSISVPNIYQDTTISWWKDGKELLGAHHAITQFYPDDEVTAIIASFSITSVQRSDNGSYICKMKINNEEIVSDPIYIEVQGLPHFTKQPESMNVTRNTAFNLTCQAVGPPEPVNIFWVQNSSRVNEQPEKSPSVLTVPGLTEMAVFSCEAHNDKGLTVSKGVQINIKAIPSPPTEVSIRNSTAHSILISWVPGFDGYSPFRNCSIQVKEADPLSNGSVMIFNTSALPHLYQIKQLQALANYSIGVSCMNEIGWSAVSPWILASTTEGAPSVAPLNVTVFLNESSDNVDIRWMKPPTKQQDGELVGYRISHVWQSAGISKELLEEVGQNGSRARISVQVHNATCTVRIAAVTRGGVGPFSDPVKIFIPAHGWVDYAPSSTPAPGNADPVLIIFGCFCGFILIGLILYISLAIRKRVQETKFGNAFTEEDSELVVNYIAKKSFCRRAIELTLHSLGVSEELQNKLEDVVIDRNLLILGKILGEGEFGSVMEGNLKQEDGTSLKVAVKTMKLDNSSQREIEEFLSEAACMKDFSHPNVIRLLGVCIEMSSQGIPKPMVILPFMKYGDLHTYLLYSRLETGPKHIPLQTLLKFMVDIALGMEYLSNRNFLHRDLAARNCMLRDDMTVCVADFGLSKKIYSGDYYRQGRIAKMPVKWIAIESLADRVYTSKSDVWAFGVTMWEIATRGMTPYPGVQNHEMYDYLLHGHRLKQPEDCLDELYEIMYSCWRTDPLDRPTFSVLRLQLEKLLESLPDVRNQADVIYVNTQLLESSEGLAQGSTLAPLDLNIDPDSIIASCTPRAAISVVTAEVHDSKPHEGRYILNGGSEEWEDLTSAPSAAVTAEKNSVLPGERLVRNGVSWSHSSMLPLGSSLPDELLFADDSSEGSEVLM", "chain of UniProt P22607 (whole entry, looked up)": "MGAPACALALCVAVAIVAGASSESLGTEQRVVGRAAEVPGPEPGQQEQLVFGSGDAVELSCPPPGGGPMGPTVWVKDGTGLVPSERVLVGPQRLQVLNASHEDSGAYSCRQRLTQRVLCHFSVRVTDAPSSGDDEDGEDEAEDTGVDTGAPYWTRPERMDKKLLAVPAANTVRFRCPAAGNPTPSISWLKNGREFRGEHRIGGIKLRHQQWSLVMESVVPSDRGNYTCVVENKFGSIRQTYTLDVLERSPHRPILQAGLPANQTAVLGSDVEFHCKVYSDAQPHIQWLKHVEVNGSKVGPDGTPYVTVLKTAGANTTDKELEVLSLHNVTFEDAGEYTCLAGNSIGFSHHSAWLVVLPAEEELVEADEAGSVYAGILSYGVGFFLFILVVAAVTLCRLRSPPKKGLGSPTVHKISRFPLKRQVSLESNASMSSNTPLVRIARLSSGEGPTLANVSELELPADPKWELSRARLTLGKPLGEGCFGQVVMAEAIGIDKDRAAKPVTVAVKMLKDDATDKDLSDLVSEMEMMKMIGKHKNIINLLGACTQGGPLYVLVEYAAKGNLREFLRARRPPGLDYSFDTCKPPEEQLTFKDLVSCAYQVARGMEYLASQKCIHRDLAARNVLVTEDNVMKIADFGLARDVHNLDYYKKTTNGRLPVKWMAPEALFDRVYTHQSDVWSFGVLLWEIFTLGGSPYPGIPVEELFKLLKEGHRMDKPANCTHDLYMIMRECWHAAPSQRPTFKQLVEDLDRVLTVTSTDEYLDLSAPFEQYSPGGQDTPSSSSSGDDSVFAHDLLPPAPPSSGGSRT", "chain of UniProt Q9Y6M4 (whole entry, looked up)": "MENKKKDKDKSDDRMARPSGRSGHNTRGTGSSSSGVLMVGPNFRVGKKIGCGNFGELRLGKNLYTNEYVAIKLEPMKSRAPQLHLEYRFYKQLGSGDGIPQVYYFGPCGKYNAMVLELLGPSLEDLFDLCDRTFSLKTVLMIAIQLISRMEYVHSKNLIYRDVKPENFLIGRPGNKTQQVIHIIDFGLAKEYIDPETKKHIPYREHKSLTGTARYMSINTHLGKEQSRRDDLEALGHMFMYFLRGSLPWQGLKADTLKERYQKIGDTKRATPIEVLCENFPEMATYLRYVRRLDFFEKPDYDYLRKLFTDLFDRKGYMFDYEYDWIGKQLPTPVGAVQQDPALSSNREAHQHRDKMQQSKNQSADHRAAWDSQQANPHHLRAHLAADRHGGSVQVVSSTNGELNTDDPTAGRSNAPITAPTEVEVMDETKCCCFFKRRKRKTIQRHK", "chain of UniProt P11362 (whole entry, looked up)": "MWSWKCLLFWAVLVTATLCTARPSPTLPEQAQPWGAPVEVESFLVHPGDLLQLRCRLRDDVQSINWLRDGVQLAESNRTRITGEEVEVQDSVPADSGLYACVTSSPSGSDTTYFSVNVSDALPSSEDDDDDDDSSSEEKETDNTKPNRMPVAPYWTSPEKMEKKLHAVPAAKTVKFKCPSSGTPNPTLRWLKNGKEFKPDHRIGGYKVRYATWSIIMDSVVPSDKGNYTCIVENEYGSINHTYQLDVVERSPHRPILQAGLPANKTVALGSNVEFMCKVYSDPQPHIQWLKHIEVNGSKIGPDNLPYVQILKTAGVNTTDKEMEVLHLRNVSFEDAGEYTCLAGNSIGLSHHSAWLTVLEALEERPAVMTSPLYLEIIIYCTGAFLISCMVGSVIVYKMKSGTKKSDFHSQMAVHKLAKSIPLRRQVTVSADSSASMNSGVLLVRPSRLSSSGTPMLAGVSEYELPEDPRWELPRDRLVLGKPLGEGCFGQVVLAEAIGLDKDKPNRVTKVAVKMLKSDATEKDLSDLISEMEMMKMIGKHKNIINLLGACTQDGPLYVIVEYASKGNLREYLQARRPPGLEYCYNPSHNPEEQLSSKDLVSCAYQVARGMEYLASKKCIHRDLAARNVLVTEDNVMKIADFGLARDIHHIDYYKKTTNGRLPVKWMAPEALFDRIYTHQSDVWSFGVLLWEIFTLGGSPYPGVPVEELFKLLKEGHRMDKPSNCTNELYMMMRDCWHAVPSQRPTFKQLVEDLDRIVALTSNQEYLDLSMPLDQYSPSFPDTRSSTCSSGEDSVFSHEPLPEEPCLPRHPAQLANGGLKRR", "chain of UniProt Q8WTQ7 (whole entry, looked up)": "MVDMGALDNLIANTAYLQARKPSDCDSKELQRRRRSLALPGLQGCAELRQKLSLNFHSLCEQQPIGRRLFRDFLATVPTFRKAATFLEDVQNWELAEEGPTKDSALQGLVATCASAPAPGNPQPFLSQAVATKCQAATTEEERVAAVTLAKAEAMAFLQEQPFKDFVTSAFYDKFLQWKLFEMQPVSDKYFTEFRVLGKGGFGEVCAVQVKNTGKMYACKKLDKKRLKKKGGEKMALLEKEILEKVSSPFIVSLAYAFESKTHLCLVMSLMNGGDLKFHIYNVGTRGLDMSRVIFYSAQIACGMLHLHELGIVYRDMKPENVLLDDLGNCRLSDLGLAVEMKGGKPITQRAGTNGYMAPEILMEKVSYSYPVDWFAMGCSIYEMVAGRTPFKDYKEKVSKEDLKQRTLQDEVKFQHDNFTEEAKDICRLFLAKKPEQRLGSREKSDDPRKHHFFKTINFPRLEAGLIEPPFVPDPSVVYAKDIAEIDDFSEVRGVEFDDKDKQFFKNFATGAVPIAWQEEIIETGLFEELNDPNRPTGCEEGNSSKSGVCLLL", "chain of UniProt P27361 (whole entry, looked up)": "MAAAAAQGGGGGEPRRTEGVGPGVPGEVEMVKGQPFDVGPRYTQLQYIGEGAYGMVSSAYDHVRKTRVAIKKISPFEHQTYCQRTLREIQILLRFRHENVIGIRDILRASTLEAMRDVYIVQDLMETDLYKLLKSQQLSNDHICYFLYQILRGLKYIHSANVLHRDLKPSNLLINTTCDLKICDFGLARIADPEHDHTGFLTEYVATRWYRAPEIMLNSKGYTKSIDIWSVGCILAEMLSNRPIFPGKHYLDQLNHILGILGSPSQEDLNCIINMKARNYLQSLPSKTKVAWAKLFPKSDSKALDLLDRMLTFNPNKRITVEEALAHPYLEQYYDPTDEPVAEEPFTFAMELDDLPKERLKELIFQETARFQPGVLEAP"}
{"data": "Sample 1", "SMILES": "Cc1cc(NC(=O)c2cccc(S(F)(F)(F)(F)F)c2)cc(-n2ccn3nc(-c4cccnc4)cc23)c1", "read-out": "cell-free assay", "technique": "competition with immobilised ligand", "tested at": "1 µM"}
{"target": "PRKAA1 (Homo sapiens, UniProt Q13131)", "remaining binding [%]": 100}
{"target": "STK32B (Homo sapiens, UniProt Q9NY57)", "remaining binding [%]": 100}
{"target": "DCLK1 (Homo sapiens, UniProt O15075)", "remaining binding [%]": 66.2}
{"target": "MUSK (Homo sapiens, UniProt O15146)", "remaining binding [%]": 82}
{"target": "FRK (Homo sapiens, UniProt P42685)", "remaining binding [%]": 100}
{"data": "Sample 2", "target": "TAR DNA-binding protein 43, full length, His tag (TARDBP, Homo sapiens, UniProt Q13148, residues 1-414)", "technique": "RNA Bind-n-Seq", "form": "RNA", "sample": "in vitro", "tested at": "20 nM", "notes": "6-mer, flanks averaged, single round", "with": "150 mM KCl", "baseline": "input library", "reading": "higher = stronger binding"}
{"Sequence": "AACAUG", "6-mer enrichment (R)": 0.712}
{"Sequence": "UCGAUU", "6-mer enrichment (R)": 0.554}
{"Sequence": "GCUCUA", "6-mer enrichment (R)": 0.612}
{"Sequence": "CAGUUA", "6-mer enrichment (R)": 0.611}
{"Sequence": "AAUGGA", "6-mer enrichment (R)": 0.91}
{"Sequence": "GCAAGA", "6-mer enrichment (R)": 0.984}
{"Sequence": "ACAUUC", "6-mer enrichment (R)": 0.555}
{"Sequence": "UCUUAC", "6-mer enrichment (R)": 0.546}
{"data": "Sample 3", "SMILES": "COc1cc2ncc(-c3ccccc3)nc2cc1OC", "read-out": "enzyme activity", "action": "inhibitor", "tested at": "0.5 µM", "baseline": "control"}
{"target": "FGFR1 (Homo sapiens, UniProt P11362)", "remaining activity": "92.9%"}
{"target": "MAP3K14 (Homo sapiens, UniProt Q99558)", "remaining activity": "115%"}
{"target": "GRK7 (Homo sapiens, UniProt Q8WTQ7)", "remaining activity": "105%"}
{"target": "MERTK (Homo sapiens, UniProt Q12866)", "remaining activity": "80%"}
{"target": "FGFR3 (Homo sapiens, UniProt P22607)", "remaining activity": "96%"}
{"target": "EPHA3 (Homo sapiens, UniProt P29320)", "remaining activity": "86.8%"}
{"target": "ULK3 (Homo sapiens, UniProt Q6PHR2)", "remaining activity": "89.4%"}
{"target": "WEE1 (Homo sapiens, UniProt P30291)", "remaining activity": "82.8%"}
{"target": "ARAF (Homo sapiens, UniProt P10398)", "remaining activity": "87.6%"}
{"target": "RPS6KA2 (Homo sapiens, UniProt Q15349)", "remaining activity": "85.4%"}
{"target": "TAOK2 (Homo sapiens, UniProt Q9UL54)", "remaining activity": "95.9%"}
{"target": "MAPK3 (Homo sapiens, UniProt P27361)", "remaining activity": "97.6%"}
{"target": "CSNK1G3 (Homo sapiens, UniProt Q9Y6M4)", "remaining activity": "104%"}
{"target": "FRK (Homo sapiens, UniProt P42685)", "remaining activity": "99.3%"}
{"data": "Sample 4", "target": "ATP-dependent RNA helicase DDX3X, helicase core (DDX3X, Homo sapiens, UniProt O00571, residues 132-607)", "technique": "RNA Bind-n-Seq", "form": "RNA", "sample": "in vitro", "tested at": "90 pmol", "notes": "4-mer, random 30-nt RNA, single round", "with": "3 µM DMDA-PatA, 2 mM ADP, 2 mM phosphate", "baseline": "input library", "reading": "higher = stronger binding", "chain of UniProt O00571 (132-607, looked up)": "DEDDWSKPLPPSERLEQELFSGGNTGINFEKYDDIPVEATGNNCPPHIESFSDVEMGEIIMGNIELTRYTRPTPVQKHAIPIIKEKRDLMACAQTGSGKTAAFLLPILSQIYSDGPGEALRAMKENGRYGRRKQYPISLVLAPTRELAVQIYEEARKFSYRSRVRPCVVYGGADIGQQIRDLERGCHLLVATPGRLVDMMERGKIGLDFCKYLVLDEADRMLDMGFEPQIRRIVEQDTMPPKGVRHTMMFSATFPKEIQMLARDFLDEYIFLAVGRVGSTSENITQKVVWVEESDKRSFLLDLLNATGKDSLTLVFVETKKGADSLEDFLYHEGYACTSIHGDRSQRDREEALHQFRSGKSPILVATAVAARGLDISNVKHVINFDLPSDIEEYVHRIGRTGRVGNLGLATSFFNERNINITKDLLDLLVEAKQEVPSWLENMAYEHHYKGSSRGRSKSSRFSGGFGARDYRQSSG"}
{"Sequence": "UGAG", "4-mer enrichment [fold]": 1.22}
{"Sequence": "GGAA", "4-mer enrichment [fold]": 1.18}
{"Sequence": "GUUC", "4-mer enrichment [fold]": 0.906}
{"Sequence": "AACU", "4-mer enrichment [fold]": 0.824}
{"Sequence": "AAGA", "4-mer enrichment [fold]": 1.19}
{"Sequence": "GAGA", "4-mer enrichment [fold]": 1.16}
{"Sequence": "CCGA", "4-mer enrichment [fold]": 0.927}
{"Sequence": "UGUU", "4-mer enrichment [fold]": 1.06}
{"note": "Some of these lines once more (sample 2):"}
{"Sequence": "UCGAUU", "6-mer enrichment (R)": 0.554}
{"Sequence": "AAUGGA", "6-mer enrichment (R)": 0.91}
{"Sequence": "ACAUUC", "6-mer enrichment (R)": 0.555}
